# Published values gathered from unrelated publications.
# Each numbered part is a random draw from the data of one study; scales do not carry over between parts.
# Chain of UniProt Q9UQM7 (whole entry, looked up): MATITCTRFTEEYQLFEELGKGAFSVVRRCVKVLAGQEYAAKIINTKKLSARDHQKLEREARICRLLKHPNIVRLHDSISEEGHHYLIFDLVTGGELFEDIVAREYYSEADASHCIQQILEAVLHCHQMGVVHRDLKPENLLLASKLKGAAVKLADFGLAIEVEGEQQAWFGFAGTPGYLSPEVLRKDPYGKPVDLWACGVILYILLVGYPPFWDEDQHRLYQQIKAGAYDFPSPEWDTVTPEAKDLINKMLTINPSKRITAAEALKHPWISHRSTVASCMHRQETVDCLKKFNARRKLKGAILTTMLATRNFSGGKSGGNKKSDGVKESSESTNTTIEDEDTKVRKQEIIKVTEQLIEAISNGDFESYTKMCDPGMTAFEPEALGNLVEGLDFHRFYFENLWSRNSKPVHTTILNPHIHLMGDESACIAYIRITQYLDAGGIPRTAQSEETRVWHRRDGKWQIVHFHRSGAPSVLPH
# Chain of UniProt P21802 (whole entry, looked up): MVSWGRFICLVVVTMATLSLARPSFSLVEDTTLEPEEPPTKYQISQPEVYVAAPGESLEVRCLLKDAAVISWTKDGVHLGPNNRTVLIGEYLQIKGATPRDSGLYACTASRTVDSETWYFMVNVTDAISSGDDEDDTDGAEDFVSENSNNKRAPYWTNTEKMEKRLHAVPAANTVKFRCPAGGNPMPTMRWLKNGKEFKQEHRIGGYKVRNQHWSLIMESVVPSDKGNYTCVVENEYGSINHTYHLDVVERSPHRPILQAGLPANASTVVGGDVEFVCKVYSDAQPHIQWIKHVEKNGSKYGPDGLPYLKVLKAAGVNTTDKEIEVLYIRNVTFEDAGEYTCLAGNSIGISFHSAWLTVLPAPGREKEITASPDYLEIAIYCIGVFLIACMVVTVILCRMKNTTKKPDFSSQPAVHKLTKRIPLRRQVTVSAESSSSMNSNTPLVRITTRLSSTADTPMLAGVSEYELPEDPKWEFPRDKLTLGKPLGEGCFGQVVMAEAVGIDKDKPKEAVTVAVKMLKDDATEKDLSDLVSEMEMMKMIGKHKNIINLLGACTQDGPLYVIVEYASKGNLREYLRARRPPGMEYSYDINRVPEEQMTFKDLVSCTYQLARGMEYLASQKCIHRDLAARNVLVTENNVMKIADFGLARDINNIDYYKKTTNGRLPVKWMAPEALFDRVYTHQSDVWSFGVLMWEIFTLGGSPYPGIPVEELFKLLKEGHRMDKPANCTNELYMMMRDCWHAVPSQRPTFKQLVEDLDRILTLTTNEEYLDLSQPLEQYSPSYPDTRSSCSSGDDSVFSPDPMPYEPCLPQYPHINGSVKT
# Chain of UniProt P10721 (whole entry, unmodified, looked up): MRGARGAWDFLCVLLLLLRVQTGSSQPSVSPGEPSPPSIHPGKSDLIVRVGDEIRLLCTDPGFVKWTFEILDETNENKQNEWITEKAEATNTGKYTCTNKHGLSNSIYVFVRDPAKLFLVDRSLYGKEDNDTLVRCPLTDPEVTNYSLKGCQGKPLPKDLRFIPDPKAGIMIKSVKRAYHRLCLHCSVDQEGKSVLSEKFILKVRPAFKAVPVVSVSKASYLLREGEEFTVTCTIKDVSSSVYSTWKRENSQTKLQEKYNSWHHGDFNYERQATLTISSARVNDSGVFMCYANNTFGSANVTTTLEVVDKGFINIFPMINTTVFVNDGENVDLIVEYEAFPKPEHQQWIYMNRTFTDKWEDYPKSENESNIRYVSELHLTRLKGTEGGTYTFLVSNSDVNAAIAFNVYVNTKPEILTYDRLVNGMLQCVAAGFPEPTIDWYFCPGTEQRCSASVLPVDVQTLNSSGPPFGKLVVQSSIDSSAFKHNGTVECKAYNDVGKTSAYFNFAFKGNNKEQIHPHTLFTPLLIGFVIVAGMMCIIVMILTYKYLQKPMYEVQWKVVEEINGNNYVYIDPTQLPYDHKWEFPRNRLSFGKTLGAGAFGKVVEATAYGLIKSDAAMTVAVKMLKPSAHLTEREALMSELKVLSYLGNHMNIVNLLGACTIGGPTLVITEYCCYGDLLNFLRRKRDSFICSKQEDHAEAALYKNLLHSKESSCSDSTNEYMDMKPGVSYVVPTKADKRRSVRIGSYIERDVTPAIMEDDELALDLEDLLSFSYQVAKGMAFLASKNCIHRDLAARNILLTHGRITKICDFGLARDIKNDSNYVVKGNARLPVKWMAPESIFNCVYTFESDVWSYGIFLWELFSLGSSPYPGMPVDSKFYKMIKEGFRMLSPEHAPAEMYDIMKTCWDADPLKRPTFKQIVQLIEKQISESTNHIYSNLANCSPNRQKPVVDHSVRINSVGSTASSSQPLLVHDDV
# Chain of UniProt Q13177 (whole entry, looked up): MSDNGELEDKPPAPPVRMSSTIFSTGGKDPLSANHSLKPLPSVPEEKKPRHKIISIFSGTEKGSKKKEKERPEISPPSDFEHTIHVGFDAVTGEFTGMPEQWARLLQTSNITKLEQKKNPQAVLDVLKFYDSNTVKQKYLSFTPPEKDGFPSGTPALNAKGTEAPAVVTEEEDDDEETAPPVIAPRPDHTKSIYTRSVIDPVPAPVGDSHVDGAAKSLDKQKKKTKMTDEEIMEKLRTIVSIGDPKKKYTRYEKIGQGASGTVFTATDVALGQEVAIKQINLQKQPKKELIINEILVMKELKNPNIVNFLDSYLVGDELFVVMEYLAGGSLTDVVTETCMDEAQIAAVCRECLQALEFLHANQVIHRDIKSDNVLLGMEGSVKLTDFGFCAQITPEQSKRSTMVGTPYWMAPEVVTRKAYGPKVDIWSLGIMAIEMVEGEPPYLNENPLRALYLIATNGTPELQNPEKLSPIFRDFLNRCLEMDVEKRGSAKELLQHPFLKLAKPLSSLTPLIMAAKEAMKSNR
# Chain of UniProt Q7L7X3 (whole entry, looked up): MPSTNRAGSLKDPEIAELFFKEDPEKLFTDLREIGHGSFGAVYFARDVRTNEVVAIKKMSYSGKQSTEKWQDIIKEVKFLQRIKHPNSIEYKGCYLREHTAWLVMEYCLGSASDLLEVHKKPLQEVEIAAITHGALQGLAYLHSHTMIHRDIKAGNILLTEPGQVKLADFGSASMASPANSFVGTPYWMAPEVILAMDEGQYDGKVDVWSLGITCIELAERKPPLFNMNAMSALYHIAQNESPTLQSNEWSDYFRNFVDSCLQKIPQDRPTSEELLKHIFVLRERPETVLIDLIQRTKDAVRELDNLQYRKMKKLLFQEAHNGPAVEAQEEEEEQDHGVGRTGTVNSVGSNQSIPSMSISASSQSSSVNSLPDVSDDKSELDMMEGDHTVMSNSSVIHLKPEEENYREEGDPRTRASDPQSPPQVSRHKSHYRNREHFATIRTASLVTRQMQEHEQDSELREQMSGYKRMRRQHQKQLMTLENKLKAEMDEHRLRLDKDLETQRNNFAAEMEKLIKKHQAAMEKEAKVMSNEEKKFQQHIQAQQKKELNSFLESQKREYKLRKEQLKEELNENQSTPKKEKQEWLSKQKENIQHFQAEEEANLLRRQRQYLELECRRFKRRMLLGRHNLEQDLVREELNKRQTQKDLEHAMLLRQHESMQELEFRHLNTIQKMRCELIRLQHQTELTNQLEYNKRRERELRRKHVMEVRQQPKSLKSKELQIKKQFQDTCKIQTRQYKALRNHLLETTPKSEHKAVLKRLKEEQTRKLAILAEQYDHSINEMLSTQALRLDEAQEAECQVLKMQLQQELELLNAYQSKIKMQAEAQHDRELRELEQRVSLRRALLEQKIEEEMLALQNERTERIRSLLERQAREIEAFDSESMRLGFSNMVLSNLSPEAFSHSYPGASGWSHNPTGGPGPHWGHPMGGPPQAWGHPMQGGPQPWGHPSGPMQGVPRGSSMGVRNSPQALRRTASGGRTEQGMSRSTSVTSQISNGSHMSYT
# Chain of UniProt Q8TDC3 (whole entry, looked up): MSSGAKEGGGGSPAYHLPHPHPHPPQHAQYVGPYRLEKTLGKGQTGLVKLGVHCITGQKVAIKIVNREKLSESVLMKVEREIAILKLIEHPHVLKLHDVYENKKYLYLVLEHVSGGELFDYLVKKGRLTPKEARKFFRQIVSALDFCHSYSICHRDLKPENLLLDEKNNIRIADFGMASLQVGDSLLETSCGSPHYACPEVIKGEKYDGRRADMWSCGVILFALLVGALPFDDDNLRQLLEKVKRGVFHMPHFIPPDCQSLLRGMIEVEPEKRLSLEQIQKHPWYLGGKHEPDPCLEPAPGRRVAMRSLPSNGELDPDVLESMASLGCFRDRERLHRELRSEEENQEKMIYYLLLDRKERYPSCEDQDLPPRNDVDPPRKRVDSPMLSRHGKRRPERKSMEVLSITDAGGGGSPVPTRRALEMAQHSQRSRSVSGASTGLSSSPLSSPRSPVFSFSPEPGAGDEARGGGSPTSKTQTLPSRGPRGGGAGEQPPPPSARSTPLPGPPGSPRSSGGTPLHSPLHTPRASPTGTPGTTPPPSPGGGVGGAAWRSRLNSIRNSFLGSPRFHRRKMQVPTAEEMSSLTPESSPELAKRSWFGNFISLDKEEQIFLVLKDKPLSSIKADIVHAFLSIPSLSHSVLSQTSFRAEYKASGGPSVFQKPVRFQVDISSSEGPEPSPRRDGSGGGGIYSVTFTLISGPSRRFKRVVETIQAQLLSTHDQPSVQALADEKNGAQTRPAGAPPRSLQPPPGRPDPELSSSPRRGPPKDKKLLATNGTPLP
# Chain of UniProt Q15208 (whole entry, looked up): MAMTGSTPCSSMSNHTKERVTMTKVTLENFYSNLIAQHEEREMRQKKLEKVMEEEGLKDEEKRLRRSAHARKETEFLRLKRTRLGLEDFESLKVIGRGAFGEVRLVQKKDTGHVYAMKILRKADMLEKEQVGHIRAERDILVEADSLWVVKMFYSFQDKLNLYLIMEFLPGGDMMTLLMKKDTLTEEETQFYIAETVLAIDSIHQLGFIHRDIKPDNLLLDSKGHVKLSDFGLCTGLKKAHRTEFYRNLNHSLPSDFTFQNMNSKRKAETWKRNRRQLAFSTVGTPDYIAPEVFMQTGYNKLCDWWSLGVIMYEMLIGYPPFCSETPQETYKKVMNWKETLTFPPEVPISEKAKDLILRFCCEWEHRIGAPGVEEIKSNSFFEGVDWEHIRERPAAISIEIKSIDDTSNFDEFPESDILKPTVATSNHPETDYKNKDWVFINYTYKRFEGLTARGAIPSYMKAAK

# Series 1 — observed: cell-free assay; method: competition with immobilised ligand; concentration: 1 µM
# Compound: CC(=O)N1CCC(c2ccc(C(=O)NC3=NCCN3)cc2C(F)(F)F)CC1
target,remaining binding [%]
"CDKL5 (Homo sapiens, UniProt O76039)",79
"PRKCD (Homo sapiens, UniProt Q05655)",100
"STK4 (Homo sapiens, UniProt Q13043)",100
"PAK2 (Homo sapiens, UniProt Q13177)",95
"PRKG1 (Homo sapiens, UniProt Q13976)",100
"PIKFYVE (Homo sapiens, UniProt Q9Y2I7)",88
"TNK2 (Homo sapiens, UniProt Q07912)",100
"Tyrosine-protein kinase ABL1, phosphorylated (ABL1, Homo sapiens, UniProt P00519, M351T)",100
"BRSK1 (Homo sapiens, UniProt Q8TDC3)",100
"SRPK2 (Homo sapiens, UniProt P78362)",100
"Tyrosine-protein kinase ABL1, non-phosphorylated (ABL1, Homo sapiens, UniProt P00519, H396P)",100
"NTRK2 (Homo sapiens, UniProt Q16620)",100
"PIK3C2B (Homo sapiens, UniProt O00750)",50
"KIT (Homo sapiens, UniProt P10721, V559D/V654A)",100
"CIT (Homo sapiens, UniProt O14578)",100
"SBK3 (Homo sapiens, UniProt P0C264)",100
"TAOK1 (Homo sapiens, UniProt Q7L7X3)",100
"STK38 (Homo sapiens, UniProt Q15208)",85
"KIT (Homo sapiens, UniProt P10721)",100
"FGFR2 (Homo sapiens, UniProt P21802)",86
"NLK (Homo sapiens, UniProt Q9UBE8)",100
"CAMK2A (Homo sapiens, UniProt Q9UQM7)",94
"NEK11 (Homo sapiens, UniProt Q8NG66)",100
"TNK1 (Homo sapiens, UniProt Q13470)",84
"CDKL1 (Homo sapiens, UniProt Q00532)",100

# Series 2 — observed: enzyme activity; action: inhibitor; concentration: 10 µM
# Target: Calcium/calmodulin-dependent protein kinase type II subunit alpha (CAMK2A, Homo sapiens, UniProt Q9UQM7)
Structure (SMILES),inhibition
CNCC(O)c1ccc(OC(=O)C(C)(C)C)c(OC(=O)C(C)(C)C)c1 (stereo not drawn),-5%
Cc1oc(=O)oc1COC(=O)[C@@H]1N2C(=O)[C@@H](NC(=O)[C@H](N)c3ccccc3)[C@H]2SC1(C)C,-6%
CC(C)[C@@H](C)/C=C/[C@@H](C)[C@H]1CC[C@H]2C3=CC=C4C[C@@H](O)CC[C@@]4(C)[C@@H]3CC[C@]12C,-6%
Cn1ccc(=O)n(C)c1=O,19%
Cc1cn([C@H]2C[C@H](O)[C@@H](CO)O2)c(=O)nc1N,-10%
CC(C)c1c(O)cc(/C=C/c2ccccc2)cc1O,-7%
CSSSC,-22%
COc1cc(CCO)ccc1O,4%
CO[C@@]1(NC(=O)C2SC(=C(C(N)=O)C(=O)O)S2)C(=O)N2C(C(=O)O)=C(CSc3nnnn3C)CS[C@@H]21 (stereo partly drawn),-2%
CC(C)=CCC[C@@H](C)[C@H]1CC[C@H]2[C@@H]3CC=C4C[C@@H](O)CC[C@]4(C)[C@H]3CC[C@]12C,-7%
C[C@H]1O[C@@H](O[C@H]2CC[C@@]3(C)[C@@H](CC[C@]4(C)[C@@H]3C=CC3=C5CC(C)(C)CC[C@]5(CO)[C@@H](O)C[C@]34C)[C@]2(C)CO)[C@H](O[C@@H]2O[C@H](CO)[C@@H](O)[C@H](O)[C@H]2O)[C@@H](O[C@@H]2O[C@H](CO)[C@@H](O)[C@H](O)[C@H]2O)[C@H]1O,8%
COc1ccnc(C[S+]([O-])c2nc3cc(-n4cccc4)ccc3[nH]2)c1C (stereo not drawn),-11%
CC1=C(C(=O)O)N2C(=O)[C@@H](NC(=O)[C@H](N)C3=CCC=CC3)[C@H]2SC1,-8%

# Series 3 — host: human; matrix: microsomes or S9; concentration: 2 µM; time: 0.5 h
Compound,remaining compound [%]
c1nc(N2CCCC2)sc1CN1CC[C@H]2OCc3cnnn3[C@H]2C1,99.1
CN(C)c1ccc2c(c1)[C@H](CC(=O)c1ccccc1)C(C(=O)OCc1ccccc1)(C(=O)OCc1ccccc1)C[C@H]2c1ccccc1,38.7
CC(Oc1cc(-n2nc3c(c2Cl)CCCC3)c(F)cc1Cl)C(=O)NCCO (stereo not drawn),25.9
COc1cccc(-c2[nH]ncc2CNC2(c3ccccc3F)CCCC2)c1,0.141
CCOc1ccc(S(=O)(=O)N2CCC3(CC2)Nc2ccccc2-n2cccc23)cc1,5.65
O=c1c(I)coc2cc(OC3CCCCO3)ccc12 (stereo not drawn),66.9
O=C(CN1C(=O)c2ccccc2N2C(=O)c3ccccc3C12)Nc1ccncc1 (stereo not drawn),68.2
Cc1cc2nc(CN(C)c3ccccc3)cc(=O)n2o1,82.4
Cc1ccc(C(O)(c2ccccc2)c2cnc(C(C)C)n2C)cc1 (stereo not drawn),13.3
CCO[C@H]1CN(Cc2ccc3[nH]ccc3c2)C[C@@H]1O,95.5
CCN(c1ccccc1)c1nc(N(CC)c2ccccc2)[nH]c(=O)n1,92.3
Cc1cc(C)cc(-n2ncc3c(=O)n(CC(=O)c4cc(C)[nH]c4C)cnc32)c1,> 100
CCOc1cc(/C=N/n2cnnc2)cc(Cl)c1OCCOc1cc(C)ccc1C(C)C,51.5

# Series 4 — observed: enzyme activity; action: inhibitor; concentration: 0.5 µM; relative to: control
# Target: Fibroblast growth factor receptor 2 (FGFR2, Homo sapiens, UniProt P21802)
SMILES,remaining activity
COc1cc2c(cc1OC)-c1[nH]nc(Nc3cccc(F)c3)c1C2,100%
O=C(Nc1cccc(Nc2nccc(Nc3cccc(C(F)(F)F)c3)n2)c1)C1CC1,103%
CCN(CC)CCNC(=O)c1c(C)[nH]c(/C=C2\C(=O)Nc3ccc(F)cc32)c1C,50.5%
CCOc1nc(NC(=O)Cc2cc(OC)ccc2OC)cc(N)c1C#N,110%
O=c1cc(-c2cccc3c2Sc2ccccc2S3)oc(N2CCOCC2)c1,98.7%
Ic1cccc(CSc2nnc(-c3ccncc3)o2)c1,101%
N#Cc1c(NC(=O)c2cccc3ccccc23)sc2c1CCCC2,110%
c1ccc(-c2cnc(Nc3ccc(OCCN4CCCC4)cc3)s2)cc1,92.7%
Cc1cc2ncc(-c3ccccc3)nc2cc1C,108%
Cc1cn(-c2cc(NC(=O)c3ccc(C)c(Nc4nccc(-c5cccnc5)n4)c3)cc(C(F)(F)F)c2)cn1,96.5%
COc1cc2ncnc(Nc3cccc(Cl)c3)c2cc1OC,97.5%
Cc1nc2cc3nc(-c4cccs4)cnc3cc2n1C,91.8%
C[C@@H]1CCN(C(=O)CC#N)C[C@@H]1N(C)c1ncnc2[nH]ccc12,91.7%
Nc1cccc(-c2cc3c(Oc4cccc(O)c4)ncnc3[nH]2)c1,46.1%
N#C/C(=C\c1ccc(O)c(O)c1)C(=O)NCc1ccccc1,98.1%
Cn1nc2c3c(cccc31)C(=O)c1ccccc1-2,105%
CCN(CC)C(=O)c1ccc(Nc2nc(OCC3CCCCC3)c3[nH]cnc3n2)cc1,76.6%
c1ccc(-c2[nH]ncc2-c2ccnc3ccccc23)nc1,110%
CN([C@@H](Cc1ccc(OS(=O)(=O)c2cccc3cnccc23)cc1)C(=O)N1CCN(c2ccccc2)CC1)S(=O)(=O)c1cccc2cnccc12,98.1%
CCN(CC)CCNC(=O)c1c(C)[nH]c(/C=C2\C(=O)Nc3ccc(Cl)cc32)c1C,29.3%
O=C(NC(NC(=S)Nc1ccc(F)c([N+](=O)[O-])c1)C(Cl)(Cl)Cl)C(c1ccccc1)c1ccccc1 (stereo not drawn),97.7%
O=C1c2ccccc2-c2n[nH]c3cccc1c23,92.3%
O=C1C(Cl)=C(N2C(=O)CCC2=O)C(=O)c2ccccc21,102%
CN(C)C[C@H]1CCn2c(c(C3=C(c4cn(C)c5ccccc45)C(=O)NC3=O)c3ccccc32)C1,104%

# For quick reference, copied from above (series 2):
Structure (SMILES),inhibition
CC(C)c1c(O)cc(/C=C/c2ccccc2)cc1O,-7%
CSSSC,-22%
COc1cc(CCO)ccc1O,4%
CO[C@@]1(NC(=O)C2SC(=C(C(N)=O)C(=O)O)S2)C(=O)N2C(C(=O)O)=C(CSc3nnnn3C)CS[C@@H]21 (stereo partly drawn),-2%
CC(C)=CCC[C@@H](C)[C@H]1CC[C@H]2[C@@H]3CC=C4C[C@@H](O)CC[C@]4(C)[C@H]3CC[C@]12C,-7%
C[C@H]1O[C@@H](O[C@H]2CC[C@@]3(C)[C@@H](CC[C@]4(C)[C@@H]3C=CC3=C5CC(C)(C)CC[C@]5(CO)[C@@H](O)C[C@]34C)[C@]2(C)CO)[C@H](O[C@@H]2O[C@H](CO)[C@@H](O)[C@H](O)[C@H]2O)[C@@H](O[C@@H]2O[C@H](CO)[C@@H](O)[C@H](O)[C@H]2O)[C@H]1O,8%
COc1ccnc(C[S+]([O-])c2nc3cc(-n4cccc4)ccc3[nH]2)c1C (stereo not drawn),-11%
CC1=C(C(=O)O)N2C(=O)[C@@H](NC(=O)[C@H](N)C3=CCC=CC3)[C@H]2SC1,-8%
